Published values pooled from the literature.
Every numbered part comes from another study and shows a few of its results, in no order.

Block 1 — technique: protein-binding microarray; form: double-stranded DNA, one strand shown; sample: in vitro; concentration: not given; reading: higher = stronger binding; endpoint: E-score
Target: Max-binding protein MNT, bHLH-zipper, MAX partner unstated (MNT, Homo sapiens, UniProt Q99583, residues 220-300)
Setting: k-mer, scored over probes, only values ≥0.25
Construct (chain): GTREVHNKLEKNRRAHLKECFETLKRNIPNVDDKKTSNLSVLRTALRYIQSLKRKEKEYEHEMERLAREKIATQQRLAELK
CATGTTAG: 0.269
GCGTGACC: 0.4
CACGAGTC: 0.393
CACCCACA: 0.285
CACGGGAC: 0.289
ATCGCGTG: 0.402
AAACGTGT: 0.402

Block 2 — technique: aptamer microarray, sandwich; form: DNA with 2'F-ANA; sample: in vitro; concentration: 200 nM; added: Cy3 exosite-II aptamer, 400 nM; reading: higher = stronger binding; endpoint: mean fluorescence intensity; sequence: GGTTGGTGTGGTTGG
Target: Prothrombin, mature alpha-thrombin (F2, Homo sapiens, UniProt P00734)
Setting: whole 15-mer aptamer, many near background
2'F-ANA at 1 2 3 4 6 12 15: 331 a.u.
2'F-ANA at 3 5 8 12 13 15: 225 a.u.
2'F-ANA at 4 8 10 11 12 14 15: 58.4 a.u.
2'F-ANA at 1 4 5 8 9 10 12 13: 44.9 a.u.
2'F-ANA at 1 2 4 5 12 13 15: 84.8 a.u.
2'F-ANA at 1 2 3 4 8 14 15: 72.9 a.u.
2'F-ANA at 9 11 12 13 14 15: 182 a.u.

Block 3 — technique: protein binding microarray; form: double-stranded DNA, one strand shown; sample: in vitro; concentration: not given; reference: not given; reading: higher = stronger binding; endpoint: E-score
Target: Histone acetyltransferase KAT6A, winged helix 1, GST fusion (KAT6A, Homo sapiens, UniProt Q92794, residues 1-85)
Setting: 8-mer, flanks averaged, mean of 2 arrays, mostly near background
Residues (chain): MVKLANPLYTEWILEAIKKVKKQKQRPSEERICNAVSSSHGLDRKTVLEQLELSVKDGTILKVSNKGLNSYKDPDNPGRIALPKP
CTAGCAAC: 0.00594
TCCCGCAA: 0.247
CCACTAGG: -0.147
AGAAGAAG: -0.174
ATGGCACG: 0.224
CAGCTACC: -0.189
TGGCGCAA: 0.187

Mixed results
PhoQ, residues 284 288 289 292 302 303 SCEHLI — fold induction (PhoP, residues 12 14 15 18 19 LWHVM (Escherichia coli, UniProt P23836); Sort-seq, measured: YFP reporter; E. coli; PhoQ-PhoP variant library, added: 10 µM Mg2+; reference: high Mg2+ state, higher = stronger signaling): 13.3

A few entries again (block 3):
CAGCTACC: -0.189
CCACTAGG: -0.147
